Measured values collected from several papers.
Parts stem from different laboratories: compare values within a part only.

Block 1
Target: Interferon regulatory factor 7, full length, phosphomimetic (IRF7, Homo sapiens, UniProt Q92985, residues 1-503, S471D/S472D/S475D/S476D/S477D/S483D/S484D/S487D)
Technique: protein-binding microarray
Form: double-stranded DNA, one strand shown
Medium: in vitro
Tested at: 2200 nM top
Setting: 60-bp whole probe
Added: salmon DNA 0.4 mg/ml
Relative to: random background probes
Reading: higher = stronger binding
All sequences stand within: GCCTAGCAC … GTCTTGATTCGCTTGACGCTGCTG
Residues (chain): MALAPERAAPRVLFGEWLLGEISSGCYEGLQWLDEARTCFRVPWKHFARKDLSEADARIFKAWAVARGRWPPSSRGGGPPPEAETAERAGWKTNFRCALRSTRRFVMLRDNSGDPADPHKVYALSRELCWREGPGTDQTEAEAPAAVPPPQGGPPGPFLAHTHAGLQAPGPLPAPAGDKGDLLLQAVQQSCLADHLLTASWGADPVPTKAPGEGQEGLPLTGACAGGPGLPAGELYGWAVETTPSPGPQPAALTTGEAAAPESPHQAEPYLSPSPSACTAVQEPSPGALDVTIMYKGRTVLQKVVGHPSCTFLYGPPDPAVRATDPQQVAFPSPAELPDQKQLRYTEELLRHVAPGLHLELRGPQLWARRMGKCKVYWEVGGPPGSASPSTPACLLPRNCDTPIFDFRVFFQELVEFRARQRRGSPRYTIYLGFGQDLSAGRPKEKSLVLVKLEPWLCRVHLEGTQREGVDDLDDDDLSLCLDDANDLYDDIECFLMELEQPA
| Oligonucleotide | fitted relative affinity [z-score] |
| --- | --- |
| TCACATCTGTCATGTTTGACTGTGCTA | 1.35 |
| TCACATTGCTTTCTCTTACTGTGCTAG | 2.91 |
| AACGATATCAGTATCGAGACGTGCTAG | 0.277 |
| TTAGGACTGCTTCTCCTTAAGTGCTAG | 0.506 |
| GACGGTTCCGGTTTCGGGTCGTGCTAG | 8.59 |
| TTAGAACTGAGACTGGATTCGTGCTAG | -0.0782 |
| GAGGGTATCCTTATCCTGACGTGCTAG | 0.25 |
| CTGAGGCTGTGTTTTCACTTTGTGCTA | 3.68 |
| TTAGGTCTCGGACTGGGTTAGTGCTAG | -0.227 |
| GAATGTAACTCCTATCCAAGTGTGCTA | 0.892 |
| AGATGCCAAGAGGCATGATGGTGCTAG | -0.491 |
| GACGATATCAGTCTCGAGGCGTGCTAG | 0.101 |
| GACGATATAAGACTGGAGACGTGCTAG | -0.318 |
| TTAGACCTGAGTCTCGATTAGTGCTAG | -0.0699 |
| GACGATATCCTTATCCTGACGTGCTAG | 1.09 |
| GACGGTATCGACTATCAGGACGTGCTA | -0.0922 |
| TTTTTTTTTTTTTTTTTGTAGTGCTAG | 1.95 |
| GACGGTATCGTTTTCCTGACGTGCTAG | 2.27 |
| TCATCGTAAGCAAAAATACTGTGCTAG | -0.19 |
| TTAGCTCTCGGTCTCGGTTAGTGCTAG | 0.922 |
| GACGGTCACCTACTGCTGACGTGCTAG | 0.00575 |
| GACGGTTTCGAATATCGGGACGTGCTA | 2.17 |
| GACGATATAGGGTTTCGAGACGTGCTA | 1.01 |

Block 2
Target: Centromere-binding protein 1, full length, N-terminal tag (CBF1, Saccharomyces cerevisiae, UniProt P17106, residues 1-351)
Sequence of UniProt P17106 (whole entry, looked up): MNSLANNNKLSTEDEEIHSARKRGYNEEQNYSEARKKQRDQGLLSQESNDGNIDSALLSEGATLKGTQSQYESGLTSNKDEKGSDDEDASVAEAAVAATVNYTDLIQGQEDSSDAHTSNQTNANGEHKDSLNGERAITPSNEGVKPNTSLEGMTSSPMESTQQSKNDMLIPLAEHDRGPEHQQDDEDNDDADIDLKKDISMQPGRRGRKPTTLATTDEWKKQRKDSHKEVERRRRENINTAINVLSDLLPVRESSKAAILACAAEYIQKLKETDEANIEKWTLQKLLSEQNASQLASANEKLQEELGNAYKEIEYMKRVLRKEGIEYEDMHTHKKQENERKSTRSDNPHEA
Technique: protein-binding microarray
Form: double-stranded DNA, one strand shown
Medium: in vitro
Tested at: 0.8 µM
Setting: whole 60-bp probe, no competitor
Reading: higher = stronger binding
All sequences stand within: … GTCTTGATTCGCTTGACGCTGCTG
| Oligonucleotide | fluorescence intensity [a.u.] |
| --- | --- |
| CTAGTGATCAGTTCTCACATGCATCATCCTTTATTC | 636 |
| CTATGAACGCTTTAGTACGGTCACCCCATCTACTTC | 542 |
| CTAAGCAAACGGCAGCATGTGAAAAAACCCGTATTC | 566 |
| GAAAAGGAAATATTCCACATGTCGGATTAATTTTAG | 566 |
| CTAATTATCAAACCACATGAAACTTTTTTAATCTTC | 650 |
| CTAAAAAAATGAATGAACGTGTATCATCGTTTATTC | 526 |
| CTACAGCCGCACAGTCACGTGACAGTATACGATTTC | 47100 |
| CTATAAAATATATCTGACGTCACTGGTTTGCAGTTC | 546 |
| CTAGGCCGATGAAACGACACCACCTCCCACGATTTC | 543 |
| GAAGACTGTGACTACCTCCTGACTTCCTGTCATTAG | 626 |
| GAAAGTAGCTCGATTCACGTTCTATTAGCGGCATAG | 560 |
| CTACCAGCATGTAGGAAGGTGATGATATGCTCCTTC | 522 |
| GAACAAACGGACTTTTACGTCACACGAAAAGTATAG | 565 |
| GAAATTAAACTTGCGTGCATGCACGTACACACGTAG | 626 |
| CTATTTCTTTGGGTTTACGTGGGTTCAGCACTTTTC | 571 |
| GAACAAAGCCTTACTCATCAGATTTTTTCAAATTAG | 498 |
| GAAACATAACGAAGCCACGAGTATTCTATTTGTTAG | 588 |
| CTATGTTAGAAAAGGCATGTGCACTCACAATTCTTC | 635 |
| CCTAACTACTATACTTTCGTGATATAGCTTCGTACA | 536 |
| GAAGCCGATAATAGCTACGTGGTGGGAAGGCTGTAG | 486 |
| GAAGTCAGGTTGATACATGTGCCTTTTATTCCATAG | 777 |
| CCTAACTACTATAACCACGCTTAATAGCTTCGTACA | 539 |
| CTAGGATCCACTTGTCATGCGGTGAGAATCGTATTC | 617 |
| CTATAGCAATGTCAGCATCAGAGATACCTTCCATTC | 482 |
| CCTAACTACTATAGGCACGCAAGATAGCTTCGTACA | 522 |

Block 3
Target: Prothrombin, mature alpha-thrombin (F2, Homo sapiens, UniProt P00734)
Technique: aptamer microarray, sandwich
Form: DNA with 2'F-ANA
Medium: in vitro
Tested at: 200 nM
Setting: whole 15-mer aptamer, many near background
Added: Cy3 exosite-II aptamer, 400 nM
Reading: higher = stronger binding
Oligonucleotide: GGTTGGTGTGGTTGG
| Modification | mean fluorescence intensity |
| --- | --- |
| 2'F-ANA at 1 3 6 10 11 12 14 | 91.4 a.u. |
| 2'F-ANA at 2 3 4 8 9 11 | 584 a.u. |
| 2'F-ANA at 1 3 5 7 8 9 10 12 14 15 | 46.2 a.u. |
| 2'F-ANA at 6 8 10 12 14 | 99 a.u. |
| 2'F-ANA at 2 3 9 10 11 12 | 346 a.u. |
| 2'F-ANA at 2 3 5 10 11 12 14 | 55.9 a.u. |
| 2'F-ANA at 1 2 3 6 8 9 10 12 13 14 | 54.4 a.u. |
| 2'F-ANA at 2 5 6 7 9 13 15 | 51 a.u. |
| 2'F-ANA at 1 3 5 10 13 | 44.9 a.u. |
| 2'F-ANA at 5 7 9 10 11 13 15 | 47.3 a.u. |
| 2'F-ANA at 1 2 3 5 6 7 9 12 | 140 a.u. |
| 2'F-ANA at 2 4 5 6 7 8 9 10 11 14 | 47.1 a.u. |
| 2'F-ANA at 3 4 5 6 8 10 11 14 15 | 61.5 a.u. |
| 2'F-ANA at 1 2 5 6 7 13 | 49.6 a.u. |
| 2'F-ANA at 4 6 7 8 9 10 11 12 13 15 | 79.2 a.u. |
| 2'F-ANA at 1 3 5 6 7 8 9 12 15 | 147 a.u. |
| 2'F-ANA at 1 2 6 10 14 | 48.3 a.u. |
| 2'F-ANA at 2 3 4 9 10 11 12 13 | 254 a.u. |
| 2'F-ANA at 2 5 7 9 10 11 | 47.6 a.u. |
| 2'F-ANA at 2 4 6 8 10 13 14 15 | 61.8 a.u. |
| 2'F-ANA at 3 4 5 6 11 12 13 15 | 99.9 a.u. |
| 2'F-ANA at 1 3 5 6 11 12 | 90.4 a.u. |
| 2'F-ANA at 6 8 9 10 12 13 | 173 a.u. |
| 2'F-ANA at 2 4 5 10 12 | 49.8 a.u. |
| 2'F-ANA at 1 7 8 9 11 15 | 181 a.u. |

Block 4
Target: RNA binding protein fox-1 homolog 2, RRM domain, GST-SBP tag (RBFOX2, Homo sapiens, UniProt O43251-10, residues 100-194)
Technique: RNA Bind-n-Seq
Form: RNA
Medium: in vitro
Tested at: 365 nM
Setting: natural RNA segment, single round, ends assumed
Relative to: no-protein control
Reading: higher = stronger binding
All sequences stand within: GGGAGUUCUACAGUCCGACGAUC … UGGAAUUCUCGGGUGCCAA
Construct (chain): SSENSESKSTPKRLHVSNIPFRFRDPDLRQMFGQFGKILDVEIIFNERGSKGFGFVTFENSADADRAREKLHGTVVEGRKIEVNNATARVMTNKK
| Oligonucleotide | RBNS enrichment (R) |
| --- | --- |
| AGAGGUAGCCACAGUCCUGGAGUACCAUAGGGUGAUGUUCCUUCUGCAUGCAUCUGCAGGGCCUGUGAGAUCUGGUGUAAAAAGAGACAUGACAUGUGGAGAUGGGACUU | 7.47 |
| UGCUUCCUCUCCUGUCAAUUUCAGGAACCUUUGAGGCCCAGUUCCAGCUAUAACCACAAUCCUUGCCUGAGGCCUUUUGAUUUCUGUUUGGCUGUGCCUGGGUAGGGGCA | 0.988 |
| UGAAUGUAUAUGUUGUAAUUGAGGCAGAUAUUUGCCUUAAUUGGAAGGAUCUAACUGCUUUACAAAUAUUAAACAAGUGCUUGGGCAUGAUUGGGAGAGGAGGCAGCUUA | 5.37 |
| AAUAGCAAAUUCCUUUCAGAAGUCUCUAGCUUUAGUGCUAAAAUACUACUGAGAAAGGAACUAGGUAGUUUGGUGAAUGAAAGAAAACAAAAUUUGAAGAUAUUAUGUAG | 0.77 |
| UCCAGAAGGACCUAGGAGAGUAGGUGAGCUUUCCAAAGUGAGAGACGAAUCUUUCUUUCUUUUUUUUUUUAAAGGGCAGGAUGGGUAUGCUUUGGGCUUUCUCCUUCUGU | 0.342 |
| GGAGUUGGCAAUACCUAGUUCUGCUUCUGAAACUGGAGUAUCAUUCUUUACAUAUUUAUAUGUAUGUUUUAAGUAGUCCUCCUGUAUCUAUUGUAUAUUUUUUUCUUAAU | 0.971 |
| ACCUAGGGUGGCCUGAGAGGGCGGUGGGUAUGCGAGACCAGCACGGUGACUCUGUCCAGCUCCCGCUGUGGCCGCACGCCUCUCCCUGCACUCCCUCCUGGAGCUCUGUG | 0.966 |
| AUUUCCCAAGCCAAGCAUCCACUUGUCUGUGUCUGGGAAGGGAUGGCCAAGGCCGCUAGGGUCCUUACCCCUCAGGAUCACUCCCCAGCCCUUUCCUCAGGAGGUACCGC | 0.267 |
| CCCAGACUGACUUACACUAACCUAACUGCUCAGUGGCUGUCUAGAGACACUUUAGGAAGAUAAACUGAGCUUGAUCCUCAUCAUAUAGCCAGUUCCAUCACUCAGGUAGU | 0.343 |
| CAUCUAAGGUGGGGGCCAUGGCCGUGAAUGUGGAUGACACUUGUUCUCCUGACCCGUGGUGUUGCAGUCUGUUGUCACCAGCCUUGUUUUAGUGUGUAUAUAUGUCGCCC | 2.44 |
| GAACCCCCGAAGACGGAACCUCACAGUCUUCCAUGUUCCCUUCUUAACUGUCGUGUGGCUCGUUGCUAAAUCAUGACAAUGGCUGCCUAUCUGCUGCUUCUUAGGUUGCU | 0.305 |
| GGGUAGUGGGAGAGUAUAAGUGACUUGAGACAGAGUGUCCUUGCUCAGAAAACUGUGAAGCAGGGGUCUUGUUAGUUACAAAGCCAGUCCUAGUUGCAUGUCCAAGGGGG | 11.1 |

Repeated from above (block 2):
| Oligonucleotide | fluorescence intensity [a.u.] |
| --- | --- |
| GAACAAAGCCTTACTCATCAGATTTTTTCAAATTAG | 498 |
| GAAACATAACGAAGCCACGAGTATTCTATTTGTTAG | 588 |
| CTATGTTAGAAAAGGCATGTGCACTCACAATTCTTC | 635 |
| CCTAACTACTATACTTTCGTGATATAGCTTCGTACA | 536 |
| GAAGCCGATAATAGCTACGTGGTGGGAAGGCTGTAG | 486 |
| GAAGTCAGGTTGATACATGTGCCTTTTATTCCATAG | 777 |
| CCTAACTACTATAACCACGCTTAATAGCTTCGTACA | 539 |
| CTAGGATCCACTTGTCATGCGGTGAGAATCGTATTC | 617 |
| CTATAGCAATGTCAGCATCAGAGATACCTTCCATTC | 482 |
| CCTAACTACTATAGGCACGCAAGATAGCTTCGTACA | 522 |
